Assay results collected from several papers.
A part holds a random share of what one study measured.

Series 1
Target: Tyrosine-protein kinase ABL1 (ABL1, Homo sapiens, UniProt P00519)
UniProt P00519, sequence (whole entry, looked up): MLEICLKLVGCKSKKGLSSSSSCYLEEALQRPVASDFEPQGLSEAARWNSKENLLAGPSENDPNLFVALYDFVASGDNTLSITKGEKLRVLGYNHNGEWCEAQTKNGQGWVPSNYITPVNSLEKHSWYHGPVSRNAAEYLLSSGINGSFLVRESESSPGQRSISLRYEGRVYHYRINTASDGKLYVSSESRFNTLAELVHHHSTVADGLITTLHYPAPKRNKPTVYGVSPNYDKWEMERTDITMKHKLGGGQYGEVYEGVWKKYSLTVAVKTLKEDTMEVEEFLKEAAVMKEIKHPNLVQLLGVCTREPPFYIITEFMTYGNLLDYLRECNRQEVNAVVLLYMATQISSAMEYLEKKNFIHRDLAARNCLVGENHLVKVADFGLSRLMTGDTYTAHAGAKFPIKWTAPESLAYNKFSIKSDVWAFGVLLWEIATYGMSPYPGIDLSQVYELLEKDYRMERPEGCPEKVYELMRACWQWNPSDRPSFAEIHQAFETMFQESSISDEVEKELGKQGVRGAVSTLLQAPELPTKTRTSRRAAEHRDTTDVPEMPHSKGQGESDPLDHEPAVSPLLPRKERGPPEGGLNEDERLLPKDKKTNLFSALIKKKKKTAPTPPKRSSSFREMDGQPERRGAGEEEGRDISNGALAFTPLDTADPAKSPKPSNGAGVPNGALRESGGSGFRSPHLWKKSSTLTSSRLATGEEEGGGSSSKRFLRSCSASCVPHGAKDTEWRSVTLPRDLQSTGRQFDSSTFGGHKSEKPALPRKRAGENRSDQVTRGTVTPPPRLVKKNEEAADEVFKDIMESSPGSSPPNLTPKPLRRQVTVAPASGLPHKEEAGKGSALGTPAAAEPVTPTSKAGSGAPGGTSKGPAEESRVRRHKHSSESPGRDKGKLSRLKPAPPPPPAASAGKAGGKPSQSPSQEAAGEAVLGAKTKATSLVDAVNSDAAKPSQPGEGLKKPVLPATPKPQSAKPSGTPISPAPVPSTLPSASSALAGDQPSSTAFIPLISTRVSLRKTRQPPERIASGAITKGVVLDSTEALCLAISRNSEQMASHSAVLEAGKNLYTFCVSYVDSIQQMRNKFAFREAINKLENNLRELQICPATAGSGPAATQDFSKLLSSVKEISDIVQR
Effect on: enzyme activity
Action: inhibitor
Concentration: 0.5 µM
Reference: control
`COc1cc2nccc(Oc3ccc(NC(=S)NC(=O)c4ccccc4C)cc3)c2cc1OC` gave a remaining activity of 50.6%.
`COc1cc2ncnc(Nc3ccc(Oc4ccccc4)cc3)c2cc1OC` has a remaining activity of 81.8%.
With `CO[C@H]1C[C@@H]2CC[C@@H](C)[C@@](O)(O2)C(=O)C(=O)N2CCCC[C@H]2C(=O)O[C@H]([C@H](C)C[C@@H]2CC[C@@H](O)[C@H](OC)C2)CC(=O)[C@H](C)/C=C(\C)[C@@H](O)[C@@H](OC)C(=O)[C@H](C)C[C@H](C)/C=C/C=C/C=C/1C` the remaining activity was 103%.
`O=S(=O)(c1cccc2cnccc12)N1CCCNCC1` has a remaining activity of 96.8%.
For `NCCNc1ncc(C(N)=O)c(Nc2cccc(C(F)(F)F)c2)n1`, the remaining activity was 96%.
`OCC(O)CCON=C1C(c2c(O)[nH]c3ccccc23)=Nc2ccccc21` (stereo not shown) has a remaining activity of 71.9%.
With `Cn1sc(=O)n(Cc2ccccc2)c1=O` the remaining activity was 104%.
The remaining activity of `O=C(Nc1cccc(Nc2cc(Nc3cccc(C(F)(F)F)c3)ncn2)c1)C1CC1` is reported as 103%.

Series 2
Species: mouse
Sample: microsomes or S9
Concentration: 2 µM
Time: 0.5 h
The remaining compound of `Cc1nc(Oc2ccccc2)c(N)c(N2CCC(C)CC2)n1` is reported as 5.82%.
The remaining compound of `CN(C)S(=O)(=O)c1cc2c(cc1NC1CCCC1)Oc1ccccc1NC2=O` is reported as 92.8%.
For `CN(C)CC(C)(C)CNc1ncnc2c1cnn2-c1ccccc1`, the remaining compound was 14.5%.

Series 3
Target: Beta-1 adrenergic receptor (ADRB1, Homo sapiens, UniProt P08588)
UniProt P08588, sequence (whole entry, looked up): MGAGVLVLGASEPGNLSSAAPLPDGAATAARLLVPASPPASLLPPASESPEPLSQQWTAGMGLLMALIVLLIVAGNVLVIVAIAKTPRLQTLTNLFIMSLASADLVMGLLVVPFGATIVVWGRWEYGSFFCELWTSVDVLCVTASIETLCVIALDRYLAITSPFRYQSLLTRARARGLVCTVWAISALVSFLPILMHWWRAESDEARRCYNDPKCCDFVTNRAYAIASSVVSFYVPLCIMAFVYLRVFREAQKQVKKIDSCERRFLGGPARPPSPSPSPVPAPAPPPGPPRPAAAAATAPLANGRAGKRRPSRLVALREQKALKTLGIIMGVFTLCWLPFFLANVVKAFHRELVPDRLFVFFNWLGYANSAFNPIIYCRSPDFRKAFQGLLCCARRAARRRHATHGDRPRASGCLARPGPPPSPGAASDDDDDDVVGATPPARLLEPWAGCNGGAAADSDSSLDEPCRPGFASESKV
Action: agonist
`C#CC1(OCC(O)CN2CCN(c3cccc(C(F)(F)F)c3)CC2)CCCCC1` (stereo not shown) has an EC50 of 14.1 µM.
`O=C(Nc1ccc([C@@H](O)[C@H]2COCC(=O)N2CCCc2ccccc2)cc1)C1CCC1` has an EC50 of at least 100 µM.
With `COc1ccc(CNCC(O)COc2ccc3[nH]c(=O)ccc3c2)cc1OC` (stereo not shown) the EC50 was at least 100 µM.
With `O=C(Nc1cc(-c2ccccn2)nn1-c1ccccc1)c1ccc2ccccc2n1` the EC50 was at least 100 µM.

Series 4
Target: 5-hydroxytryptamine receptor 5A (HTR5A, Homo sapiens, UniProt P47898)
UniProt P47898, sequence (whole entry, looked up): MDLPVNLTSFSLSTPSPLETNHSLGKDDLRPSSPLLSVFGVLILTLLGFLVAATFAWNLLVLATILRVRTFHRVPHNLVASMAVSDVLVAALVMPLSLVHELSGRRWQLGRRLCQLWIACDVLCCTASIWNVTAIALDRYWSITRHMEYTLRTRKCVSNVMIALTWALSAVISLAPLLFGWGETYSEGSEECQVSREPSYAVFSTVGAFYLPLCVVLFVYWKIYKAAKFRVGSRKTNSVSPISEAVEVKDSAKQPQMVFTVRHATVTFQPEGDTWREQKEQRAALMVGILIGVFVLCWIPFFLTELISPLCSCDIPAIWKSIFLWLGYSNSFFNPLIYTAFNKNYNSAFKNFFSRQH
Effect on: cell-free assay
Concentration: 10 µM
With `O=C(Nc1cccnn1)N1CCC(=Cc2cccc(Oc3ccc(C(F)(F)F)cn3)c2)CC1` the inhibition was 28.4%.
For `CC(=O)Nc1ncc(CN2CCC[C@H](Cc3cc(C)nc(C)c3)C2)s1`, the inhibition was 18.7%.
For `Cc1c[nH]c2nccc(Oc3c(F)cc(Nc4cc(Cl)nc(N)n4)cc3F)c12`, the inhibition was -9.86%.
The inhibition of `CN(C)C(=O)Cn1cc(-c2nc(C3(c4ccc(-c5cnc(N)nc5)cc4)CC3)no2)cn1` is reported as 0.23%.
`Cc1cc(C)c(-n2ccn3nc(-c4cccnc4)cc23)cc1NC(=O)c1cc(C#N)cc(S(F)(F)(F)(F)F)c1` gave an inhibition of 9.57%.
For `CC(=O)Nc1c(C(C)=O)c(=O)n(C)c2nc(-c3ccc(Cl)cc3Cl)c(-c3ccc(Cl)cc3)cc12`, the inhibition was 14.3%.
The inhibition of `CCS(=O)(=O)c1cc2cc(C[C@@](O)(CC(C)(C)c3ccc(F)cc3C(N)=O)C(F)(F)F)[nH]c2cn1` is reported as -11.6%.

A few entries again (series 3):
With `COc1ccc(CNCC(O)COc2ccc3[nH]c(=O)ccc3c2)cc1OC` (stereo not shown) the EC50 was at least 100 µM.
With `O=C(Nc1cc(-c2ccccn2)nn1-c1ccccc1)c1ccc2ccccc2n1` the EC50 was at least 100 µM.
